Results pooled from the literature.
Parts stem from different laboratories: compare values within a part only.

Set 1
Target: Sal-like protein 4, full length isoform A (SALL4, Homo sapiens, UniProt Q9UJQ4, residues 1-1053)
UniProt Q9UJQ4, sequence (whole entry, looked up): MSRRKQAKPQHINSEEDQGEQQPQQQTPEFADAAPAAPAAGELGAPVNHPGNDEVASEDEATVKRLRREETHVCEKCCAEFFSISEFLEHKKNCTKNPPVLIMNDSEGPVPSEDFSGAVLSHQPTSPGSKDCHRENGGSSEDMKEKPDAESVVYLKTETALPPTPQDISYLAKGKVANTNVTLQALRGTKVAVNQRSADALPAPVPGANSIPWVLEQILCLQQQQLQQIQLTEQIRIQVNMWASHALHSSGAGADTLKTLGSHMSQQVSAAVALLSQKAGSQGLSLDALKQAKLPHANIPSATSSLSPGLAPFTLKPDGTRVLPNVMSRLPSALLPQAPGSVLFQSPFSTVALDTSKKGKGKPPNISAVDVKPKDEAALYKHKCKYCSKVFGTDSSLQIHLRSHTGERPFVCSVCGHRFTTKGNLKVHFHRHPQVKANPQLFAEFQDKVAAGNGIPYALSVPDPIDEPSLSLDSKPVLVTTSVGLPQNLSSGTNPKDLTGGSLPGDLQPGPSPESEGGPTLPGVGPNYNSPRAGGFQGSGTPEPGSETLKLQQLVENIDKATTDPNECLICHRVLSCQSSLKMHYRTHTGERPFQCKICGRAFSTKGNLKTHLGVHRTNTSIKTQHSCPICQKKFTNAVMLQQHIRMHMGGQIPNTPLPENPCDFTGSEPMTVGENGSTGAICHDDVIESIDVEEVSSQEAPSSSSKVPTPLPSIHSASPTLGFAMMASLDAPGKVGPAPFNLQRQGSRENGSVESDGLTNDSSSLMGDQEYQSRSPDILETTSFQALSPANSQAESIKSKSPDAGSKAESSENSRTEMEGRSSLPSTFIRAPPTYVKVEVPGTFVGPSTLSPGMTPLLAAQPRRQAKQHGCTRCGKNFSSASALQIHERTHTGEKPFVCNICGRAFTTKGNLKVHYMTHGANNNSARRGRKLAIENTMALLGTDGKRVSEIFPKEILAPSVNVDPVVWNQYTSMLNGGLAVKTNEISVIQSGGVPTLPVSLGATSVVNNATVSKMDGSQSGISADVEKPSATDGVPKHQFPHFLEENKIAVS
Technique: universal PBM
Molecule type: double-stranded DNA, one strand shown
Matrix: in vitro
Concentration: 600 nM
Setting: 8-mer, flanks averaged, mean of replicates
Direction: higher = stronger binding
The E-score of `ATGTAGCG` is reported as 0.00382.
With `AGCGAGCG` the E-score was -0.137.
With `CCACTTTC` the E-score was -0.00705.
`ATGTCACA` has an E-score of 0.197.
For `ATGGTCGA`, the E-score was 0.0569.

Set 2
Target: RNA binding protein fox-1 homolog 2, RRM domain, GST-SBP tag (RBFOX2, Homo sapiens, UniProt O43251-10, residues 100-194)
Technique: RNA Bind-n-Seq
Molecule type: RNA
Matrix: in vitro
Concentration: 365 nM
Setting: natural RNA segment, single round, ends assumed
Reference: no-protein control
Direction: higher = stronger binding
For `GGGAGUUCUACAGUCCGACGAUCGCUAGAGGAAGCAGCCUUCCCACACGUCAGCACCGUAUGCUAAUUUGCUGGAACAGGACGGUUUGGAUGUUUAUAGGGGAAAUGGAUAGUAGAUGUUAGGACCAACUGAGUGGAAUUCUCGGGUGCCAA`, “RBNS enrichment (R)” read 8.3.
Under “RBNS enrichment (R)”, `GGGAGUUCUACAGUCCGACGAUCUCUGCUGCCUCUCAGCCUCUGCUGGGGCUUCCAGCUGGGUACAUGGCUGCUUGGCCGUUUGGGGCGGUUCUUCCUCCUAGGUUCUGCAAUCCAGGCUCCAGCACCCCUCUUGGAAUUCUCGGGUGCCAA` is recorded as 0.391.
`GGGAGUUCUACAGUCCGACGAUCGAAAGUUAGUAAGCCUAAGUUUUUACAUAAUUGCAUUCCUACAUUCUUGUAAAAUUUAAAUAGCUACCAUUGGCAAUCUGCUUUUUUUCUAAAAUCUGAUUUGCAGCCAGUGGAAUUCUCGGGUGCCAA`: “RBNS enrichment (R)” 0.743.
`GGGAGUUCUACAGUCCGACGAUCUACCUUCCCCAGCGUCCCAGUCUCUGGCAGUUCUGGAAUGGAAGGGUUCUGGCUGCCCCAACCUGCUGAAGGGCAGAGGUGGAGGGUGGGGGGCGCUGAGUAGGGACUCAUGGAAUUCUCGGGUGCCAA`: “RBNS enrichment (R)” 0.577.

Set 3
Substance: PhoQ, residues 284 288 289 292 302 303 AMDMFI
Technique: Sort-seq
Item: YFP reporter
Matrix: E. coli
Setting: PhoQ-PhoP variant library
Together with: 10 µM Mg2+
Reference: high Mg2+ state
Direction: higher = stronger signaling
It gave 0.851 for fold induction (PhoP, residues 12 14 15 18 19 NQCAL (Escherichia coli, UniProt P23836)).
The fold induction was 0.651 (PhoP, residues 12 14 15 18 19 TQAML (Escherichia coli, UniProt P23836)).
PhoP, residues 12 14 15 18 19 LHTVL (Escherichia coli, UniProt P23836) — fold induction: 0.858.

Set 4
Target: Interferon regulatory factor 5, full length, phosphomimetic (IRF5, Homo sapiens, UniProt Q13568-2, residues 1-514, S451D/S453D/S456D/S462D)
Technique: protein-binding microarray
Molecule type: double-stranded DNA, one strand shown
Matrix: in vitro
Concentration: 940 nM top
Setting: 60-bp whole probe
Together with: salmon DNA 0.4 mg/ml
Reference: random background probes
Direction: higher = stronger binding
`GCCTAGCACAAGTTTCTCCTTTCGGAATAGTGCTAGGTCTTGATTCGCTTGACGCTGCTG` — result for “fitted relative affinity”: 5 z-score.
Under “fitted relative affinity”, `GCCTAGCACTTAGGCATCGGACTGGGTTAGTGCTAGGTCTTGATTCGCTTGACGCTGCTG` is recorded as -0.469 z-score.
Under “fitted relative affinity”, `GCCTAGCACTTTTGCTTTCTTTTATGCTCGTGCTAGGTCTTGATTCGCTTGACGCTGCTG` is recorded as 2.2 z-score.

Repeated from above (set 1):
The E-score of `ATGTAGCG` is reported as 0.00382.
`ATGTCACA` has an E-score of 0.197.
